Assay results of several laboratories.
Each line is one published result; not all experiments were run side by side. Numbers after ± are the reported error. ≈ marks a conversion by molar mass, not a printed value.
Organism: Escherichia coli

SMILES	assay	test system	setting	how to read	endpoint	result
CC(C)=CCC/C(C)=C/CNCCOC1C2CC3CC(C2)CC1C3 (stereo not shown)	growth	–	–	–	IC50	2.8 µg/mL
CCCCCCCCCCCCCC(=O)NCCCC[C@H](N)C(=O)N[C@@H](CCCCN)C(=O)N[C@@H](CCCCN)C(=O)N[C@@H](CCCCN)C(=O)N[C@@H](CCCCN)C(=O)N[C@@H](CCCCN)C(N)=O	–	K12	–	–	MBC	128 µg/mL (≈ 128 µM)
CC[C@H](C)[C@H](NC(=O)[C@H](CCCNC(=N)N)NC(=O)[C@H](CCCCN)NC(=O)[C@H](CC(C)C)NC(=O)[C@H](CC(C)C)NC(=O)CN)C(=O)N[C@@H](CCCCN)C(=O)N[C@H](C(=O)N[C@@H](CC(C)C)C(=O)N[C@@H](CC(C)C)C(=O)NCCCC[C@H](NC(=O)[C@H](CC(C)C)NC(=O)[C@H](CC(C)C)NC(=O)[C@@H](NC(=O)[C@H](CCCCN)NC(=O)[C@@H](NC(=O)[C@H](CCCNC(=N)N)NC(=O)[C@H](CCCCN)NC(=O)[C@H](CC(C)C)NC(=O)[C@H](CC(C)C)NC(=O)CN)[C@@H](C)CC)[C@@H](C)O)C(N)=O)[C@@H](C)O	checkerboard	ATCC 25922	added: gentamicin	–	FIC index	0.312
CC[C@H](C)[C@H](NC(=O)[C@H](CCCNC(=N)N)NC(=O)[C@@H](N)CCCNC(=N)N)C(=O)N[C@@H](CCCNC(=N)N)C(=O)N[C@@H](Cc1ccccc1)C(=O)N[C@@H](CCCNC(=N)N)C(=O)N1CCC[C@H]1C(=O)N1CCC[C@H]1C(=O)N[C@@H](Cc1ccc(O)cc1)C(=O)N[C@@H](CC(C)C)C(=O)N1CCC[C@H]1C(=O)N[C@@H](CCCNC(=N)N)C(=O)N1CCC[C@H]1C(=O)NCC(=O)N[C@@H](CCCNC(=N)N)C(=O)N[C@@H](CCCNC(=N)N)C(=O)N1CCC[C@H]1C(=O)N[C@@H](CCCNC(=N)N)C(=O)N[C@@H](Cc1ccccc1)C(=O)N1CCC[C@H]1C(=O)N1CCC[C@H]1C(=O)N1CCC[C@H]1C(=O)N[C@@H](Cc1ccccc1)C(=O)N1CCC[C@H]1C(=O)N[C@H](C(=O)N1CCC[C@H]1C(=O)N[C@@H](CCCNC(=N)N)C(=O)N[C@H](C(=O)N1CCC[C@H]1C(=O)N[C@@H](CCCNC(=N)N)C(=O)N[C@H](C(=O)N1CCC[C@H]1C(=O)O)[C@@H](C)CC)[C@@H](C)CC)[C@@H](C)CC	membrane permeabilization, propidium iodide flow cytometry	BW25113, Mueller-Hinton broth	1 µM, 15 min, 37 °C	–	PI-positive cells	< 3%
CC[C@H](C)[C@H](NC(=O)[C@H](CCCCN)NC(=O)[C@H](CCCCN)NC(=O)[C@H](CC(C)C)NC(=O)[C@H](CCCCN)NC(=O)[C@H](CCC(=O)O)NC(=O)[C@H](CCCCN)NC(=O)[C@@H](NC(=O)[C@H](CCCCN)NC(=O)[C@H](CC(N)=O)NC(=O)[C@H](CCCNC(=N)N)NC(=O)[C@H](Cc1ccccc1)NC(=O)[C@H](CCCCN)NC(=O)[C@H](CCCNC(=N)N)NC(=O)[C@H](CC(C)C)NC(=O)[C@H](CCCNC(=N)N)NC(=O)[C@H](CCCCN)NC(=O)[C@H](CCCNC(=N)N)NC(=O)[C@H](CC(C)C)NC(=O)[C@@H](N)CC(C)C)[C@@H](C)CC)C(=O)NCC(=O)N[C@@H](CCC(N)=O)C(=O)N[C@@H](CCCCN)C(=O)N[C@H](C(=O)N[C@@H](CCC(N)=O)C(=O)NCC(=O)N[C@@H](Cc1ccccc1)C(=O)N[C@H](C(=O)N1CCC[C@H]1C(=O)N[C@@H](CCCCN)C(=O)N[C@@H](CC(C)C)C(=O)N[C@H](C(=O)N1CCC[C@H]1C(=O)N[C@@H](CCCNC(=N)N)C(=O)N[C@H](C(=O)N[C@@H](CCC(=O)O)C(=O)N[C@@H](CO)C(=O)O)[C@@H](C)O)C(C)C)C(C)C)[C@@H](C)CC	inhibition zone	CIP. J14b	–	–	lethal concentration	2.67 µM
CC[C@H](C)[C@H](NC(=O)[C@H](CO)NC(=O)[C@H](CO)NC(=O)[C@H](Cc1ccccc1)NC(=O)CN)C(=O)N[C@@H](Cc1ccccc1)C(=O)N[C@@H](CCCNC(=N)N)C(=O)NCC(=O)N[C@H](C(=O)N[C@@H](C)C(=O)N[C@@H](CCCCN)C(=O)N[C@@H](Cc1ccccc1)C(=O)N[C@@H](C)C(=O)N[C@@H](CO)C(=O)N[C@@H](CCCCN)C(=O)NCC(=O)N[C@@H](CC(C)C)C(=O)NCC(=O)N[C@@H](CCCCN)C(N)=O)C(C)C	–	ATCC 8739	MIC	–	time to complete killing	120 min
O=C(O)[C@@H]1Cc2c([nH]c3ccccc23)[C@@H](c2ccc(F)cc2I)N1	–	BL21(DE3)	250 µM, 18 h	–	growth inhibition	0%
CC(C)C[C@H](NC(=O)[C@H](CC(C)C)NC(=O)[C@H](CCCCN)NC(=O)[C@H](CC(C)C)NC(=O)[C@H](CC(C)C)NC(=O)[C@H](CCCCN)NC(=O)[C@H](CCCCN)NC(=O)[C@H](CC(C)C)NC(=O)[C@H](CC(C)C)NC(=O)[C@H](CCCCN)NC(=O)[C@H](CCCCN)NC(=O)[C@H](CC(C)C)NC(=O)[C@H](CC(C)C)NC(=O)[C@H](CCCCN)NC(=O)[C@@H](N)CC(C)C)C(N)=O	–	ATCC 8937, RPMI medium	24 h, 37 °C	–	LC99.9	3.7 µM
C[C@]1(COC(=O)Cc2ccc(O)c(O)c2)[C@H](C(=O)O)N2C(=O)/C(=C/c3ccccn3)[C@H]2S1(=O)=O	broth microdilution	MG1655 expressing CTX-M-14	16 µg/mL, 20 h, 37 °C	–	MIC of ampicillin	16 µg/mL
CC[C@H](C)[C@H](NC(=O)[C@H](Cc1c[nH]c2ccccc12)NC(=O)[C@@H](N)CCCNC(=N)N)C(=O)N[C@@H](CCCNC(=N)N)C(=O)N[C@@H](Cc1c[nH]c2ccccc12)C(=O)N[C@H](C(=O)N[C@@H](Cc1c[nH]c2ccccc12)C(=O)N[C@@H](CCCNC(=N)N)C(=O)N[C@@H](CCCCN)C(=O)N[C@@H](CCCCN)C(=O)N[C@@H](CC(C)C)C(=O)N[C@@H](CCCNC(=N)N)C(N)=O)C(C)C	checkerboard	ATCC 25922	unit not given, added: 10-N-nonyl acridine orange	lower = stronger synergy	FICI	0.375
Cc1ncc(/C=N/NC(=O)c2cc3c(s2)CCCC3)cn1	–	TolC	50 µM	–	growth inhibition	24%
CC[C@H](C)[C@H](NC(=O)[C@H](CCCCN)NC(=O)[C@H](CCCCN)NC(=O)[C@H](CC(C)C)NC(=O)[C@H](CCCCN)NC(=O)[C@H](CCC(=O)O)NC(=O)[C@H](CCCCN)NC(=O)[C@@H](NC(=O)[C@H](CCCCN)NC(=O)[C@H](CC(N)=O)NC(=O)[C@H](CCCNC(=N)N)NC(=O)[C@H](Cc1ccccc1)NC(=O)[C@H](CCCCN)NC(=O)[C@H](CCCNC(=N)N)NC(=O)[C@H](CC(C)C)NC(=O)[C@H](CCCNC(=N)N)NC(=O)[C@H](CCCCN)NC(=O)[C@H](CCCNC(=N)N)NC(=O)[C@@H](N)CC(C)C)[C@@H](C)CC)C(=O)NCC(=O)N[C@@H](CCC(N)=O)C(=O)N[C@@H](CCCCN)C(=O)N[C@H](C(=O)N[C@@H](CCC(N)=O)C(=O)NCC(=O)N[C@@H](Cc1ccccc1)C(=O)N[C@H](C(=O)N1CCC[C@H]1C(=O)N[C@@H](CCCCN)C(=O)N[C@@H](CC(C)C)C(=O)O)C(C)C)[C@@H](C)CC	inhibition zone	D. J45b	–	–	lethal concentration	1.41 µM
CCCCCCCCCC(=O)NCC(=O)N[C@@H](CC(C)C)C(=O)N[C@@H](CC(C)C)C(=O)N[C@@H](CCCCN)C(=O)N[C@@H](CCCNC(=N)N)C(=O)N[C@H](C(=O)N[C@@H](CCCCN)C(=O)N[C@H](C(=O)N[C@@H](CC(C)C)C(=O)N[C@@H](CC(C)C)C(N)=O)[C@@H](C)O)[C@@H](C)CC	checkerboard	ATCC 25922	added: polymyxin B	–	FIC index	0.25
CC(C)=CCC/C(C)=C/CNCCNC1C2CC3CC1CC(O)(C3)C2 (stereo not shown)	–	K12	–	–	IC50	128 ± 3.4 µM
CC[C@H](C)[C@H](NC(=O)[C@H](CO)NC(=O)[C@H](CO)NC(=O)[C@H](Cc1ccccc1)NC(=O)CN)C(=O)N[C@@H](Cc1ccccc1)C(=O)N[C@@H](CCCNC(=N)N)C(=O)NCC(=O)N[C@H](C(=O)N[C@@H](C)C(=O)N[C@@H](CCCCN)C(=O)N[C@@H](Cc1ccccc1)C(=O)N[C@@H](C)C(=O)N[C@@H](CO)C(=O)N[C@@H](CCCCN)C(=O)NCC(=O)N[C@@H](CC(C)C)C(=O)NCC(=O)N[C@@H](CCCCN)C(=O)N[C@@H](CC(=O)O)C(=O)N[C@@H](CC(C)C)C(=O)N[C@@H](C)C(=O)N[C@@H](CCCNC(=N)N)C(N)=O)C(C)C	–	ATCC 8739	MIC	–	time to complete killing	90 min
CC[C@H](C)[C@H](NC(=O)[C@H](CCCCN)NC(=O)[C@H](CCCCN)NC(=O)[C@H](CC(C)C)NC(=O)[C@H](CCCCN)NC(=O)[C@H](CCC(=O)O)NC(=O)[C@H](CCCCN)NC(=O)[C@@H](NC(=O)[C@H](CCCCN)NC(=O)[C@H](CC(N)=O)NC(=O)[C@H](CCCNC(=N)N)NC(=O)[C@H](Cc1ccccc1)NC(=O)[C@H](CCCCN)NC(=O)[C@H](CCCNC(=N)N)NC(=O)[C@H](CC(C)C)NC(=O)[C@H](CCCNC(=N)N)NC(=O)[C@H](CCCCN)NC(=O)[C@H](CCCNC(=N)N)NC(=O)[C@H](CC(C)C)NC(=O)[C@@H](N)CCCNC(=N)N)[C@@H](C)CC)C(=O)NCC(=O)N[C@@H](CCC(N)=O)C(=O)N[C@@H](CCCCN)C(=O)N[C@H](C(=O)N[C@@H](CCC(N)=O)C(=O)NCC(=O)N[C@@H](Cc1ccccc1)C(=O)N[C@H](C(=O)N1CCC[C@H]1C(=O)N[C@@H](CCCCN)C(=O)N[C@@H](CC(C)C)C(=O)N[C@@H](CCC(N)=O)C(=O)N1CCC[C@H]1C(=O)N[C@@H](CO)C(=O)N[C@@H](CCCCN)C(=O)N[C@@H](CCC(N)=O)C(=O)N[C@@H](CO)C(=O)O)C(C)C)[C@@H](C)CC	inhibition zone	TOP10	–	–	lethal concentration	2.85 µM

Some of these lines once more:
SMILES	assay	test system	setting	how to read	endpoint	result
O=C(O)[C@@H]1Cc2c([nH]c3ccccc23)[C@@H](c2ccc(F)cc2I)N1	–	BL21(DE3)	250 µM, 18 h	–	growth inhibition	0%
